Results from different studies.
Lines come from different studies, so protocols differ. Values joined by “and” are separate records of one study, mostly repeats; a detail may differ. Numbers after ± are the reported error.

SMILES	target or system	assay	system	setting	scale	quantity	result
CC(=O)c1c(C)c2cnc(Nc3ccc(C4CCN(CCS(C)(=O)=O)CC4)cn3)nc2n(C2CCCC2)c1=O			human, plasma	oral, 25 mg once daily, day 21, multiple doses		AUC(0-t)	332 ng·h/mL
NC(=O)[C@H]1CCN(c2ncnc(N)c2F)C[C@@H]1N1CCC[C@@H](Nc2cc(Cl)cc(C(F)(F)F)c2)C1=O			B-cell malignancy patients	oral, 328 mg twice daily, dose		grade ≥3 lymphopenia	0%
COc1ccc2c(Sc3ccc(Cl)cc3)c(C(=O)NCCCN3CCCCC3)[nH]c2c1	Vero-E6	CellTiter-Glo ATP		concentration not given, 72 h, retest 8-point duplicates	reference: DMSO 0%, hyamine -100%, more negative, more toxic	cytotoxicity efficacy	-75.6%
C[C@]1(CO)Cc2ncn(-c3ccc(C#N)c(Cl)c3)c2C(=O)O1			human, Chinese	3 mg single dose		subjects with drug-related orthostatic hypotension	0%
CC(C)n1c(C2CCNCC2)nc2c([N+](=O)[O-])c(Br)c(Br)cc21		measured: Pneumonia	AML patients	125 mg		adverse events causing interruption	7%
O=C1Nc2cc3[nH]nc(-c4ccncc4)c3cc2CN1Cc1ccccc1		measured: QTc prolongation	patients with advanced solid tumours	intravenous, dose not given, both schedules pooled		patients with TEAE	15%
CN1CC[C@@H](c2c(O)cc(O)c3c(=O)cc(-c4ccc(C(F)(F)F)cc4Cl)oc23)[C@@H]1CO		measured: febrile neutropenia	AML	oral, 200 mg, grade 3 to 4, intermittent dosing		patients with adverse event	20%
CC(C)C[C@H](NC(=O)[C@H](CCCCN)NC(=O)OCC1c2ccccc2-c2ccccc21)C(=O)N[C@H](C(=O)N[C@@H](Cc1ccccc1)C(=O)N[C@@H](Cc1ccccc1)C(=O)N[C@@H](CCCCN)C(=O)NCC(=O)N[C@@H](Cc1ccccc1)C(=O)N[C@@H](C)C(=O)N[C@@H](Cc1c[nH]c2ccccc12)C(=O)N[C@@H](CC(N)=O)C(=O)N[C@H](C(=O)N[C@H]1CSSC[C@@H](C(=O)N[C@@H](Cc2c[nH]cn2)C(=O)N[C@@H](CCCNC(=N)N)C(=O)N[C@@H](CCCNC(=N)N)C(=O)N[C@@H](C)C(=O)N[C@@H](CC(N)=O)C(N)=O)NC(=O)[C@H](C(C)C)NC(=O)[C@H](CCCNC(=N)N)NC(=O)[C@H](C(C)C)NC(=O)CNC(=O)[C@H](CC(N)=O)NC(=O)[C@H](CCCNC(=N)N)NC(=O)[C@H](Cc2ccc(O)cc2)NC(=O)[C@H](C(C)C)NC1=O)C(C)C)C(C)C			ICR mouse, blood	intramammary, 5 mg/kg, day 5, 3 d dosing		glucose	1.59 ± 0.12 mmol/L
CCc1cc2c(cc1CC)CC(NC[C@H](O)c1ccc(O)c3[nH]c(=O)ccc13)C2			human	oral		absorption rate constant	1 h⁻¹
Oc1ccc(CSCc2ccc(O)cc2)cc1			ICR mice male	oral, 1500 mg/kg, day 1 before dosing, acute toxicity		body weight	30.5 ± 0.98 g
COc1cc2c(Oc3ccc4[nH]c(C)cc4c3F)ccnc2cc1OCC1(N)CC1			paediatric recurrent refractory sarcoma	concentration not given, whole group		grade 3 Hematuria	2.9%
O=C(c1ccc(F)c(F)c1Nc1ccc(I)cc1F)N1CC(O)([C@@H]2CCCCN2)C1			human	oral, 1 mg/kg		onset day of headache DLT	23 days
CO[C@H]1C[C@@H]2CC[C@@H](C)[C@@](O)(O2)C(=O)C(=O)N2CCCC[C@H]2C(=O)O[C@H]([C@H](C)C[C@@H]2CC[C@@H](OC(=O)NCCOCCOCCOCCOCCOCCOCCOCCOCCC(=O)N3CCc4cc(Cn5nc(-c6ccc7oc(N)nc7c6)c6c(N)ncnc65)ccc4C3)[C@H](OC)C2)C[C@@H](O)[C@H](C)/C=C(\C)[C@@H](O)[C@@H](OC)C(=O)[C@H](C)C[C@H](C)/C=C/C=C/C=C/1C			patients with advanced solid tumours	intravenous, 16 mg weekly, grade 3 or higher		fatigue incidence	0%
CCOc1ccc(CN2CCN(Cc3ccc4c(c3)c3ccccc3n4CC)CC2)cc1	Vero-E6	CellTiter-Glo ATP		concentration not given, 72 h, second round 5-point	reference: DMSO 0%, hyamine -100%, more negative, more toxic	cytotoxicity efficacy	-25.8%
COc1cccc(Oc2ccccc2NC(=O)CNC(=O)c2cccc3ccccc23)c1			esterase-deficient SCID mice, male	oral, 40 mg/kg/day, 14 days, toxicity study		serum potassium	7.3 mmol/L and 8.7 mmol/L and 9.1 mmol/L

Some of these lines once more:
SMILES	target or system	assay	system	setting	scale	quantity	result
COc1cccc(Oc2ccccc2NC(=O)CNC(=O)c2cccc3ccccc23)c1			esterase-deficient SCID mice, male	oral, 40 mg/kg/day, 14 days, toxicity study		serum potassium	7.3 mmol/L and 8.7 mmol/L and 9.1 mmol/L
CN1CC[C@@H](c2c(O)cc(O)c3c(=O)cc(-c4ccc(C(F)(F)F)cc4Cl)oc23)[C@@H]1CO		measured: febrile neutropenia	AML	oral, 200 mg, grade 3 to 4, intermittent dosing		patients with adverse event	20%
